Assay results collected from several papers.
A part holds a random share of what one study measured. Positions count from the first letter of the parent shown.

Set 1
Target: CCNE1, cyclin fold, Cln2 fusion (human)
Method: yeast growth competition, sequencing
Medium: yeast
Notes: strong parent motif
Baseline: not given
Direction: higher = stronger binding
Parent: PKN2 docking peptide (human); VSAVRKLDFSDTM; partner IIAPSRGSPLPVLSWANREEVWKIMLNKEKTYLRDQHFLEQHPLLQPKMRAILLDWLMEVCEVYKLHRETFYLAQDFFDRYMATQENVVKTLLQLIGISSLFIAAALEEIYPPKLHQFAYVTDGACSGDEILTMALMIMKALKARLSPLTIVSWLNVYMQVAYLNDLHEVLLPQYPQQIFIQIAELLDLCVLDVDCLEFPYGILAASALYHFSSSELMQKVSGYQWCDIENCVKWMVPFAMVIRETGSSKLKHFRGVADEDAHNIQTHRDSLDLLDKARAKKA
| Change | normalised enrichment score |
| --- | --- |
| S10T | 5.43 |
| F9Q | -0.187 |
| S2A | 5.22 |
| F9K | -0.0707 |
| R5M | 0.782 |
| S10L | 4.44 |
| A3H | 5.75 |
| K6S | 2.74 |
| L7S | 0.073 |
| F9S | 0.0661 |
| S10F | 4.22 |
| A3I | 3.29 |
| L7F | -0.274 |
| L7Y | 0.0825 |
| S2D | 3.74 |
| R5N | 0.228 |
| V4R | 5.56 |
| K6T | 3.82 |
| F9D | 0.0312 |
| S2T | 5.45 |
| D11I | 5.28 |
| D11Y | 5 |
| A3K | 0.555 |
| V4N | 2.26 |
| S10M | 5.03 |

Set 2
Target: Phosphate system positive regulatory protein PHO4, full length, GST-tagged (PHO4, Saccharomyces cerevisiae, UniProt P07270, residues 1-312)
Method: competition protein-binding microarray
Form: double-stranded DNA, one strand shown
Medium: in vitro
Tested at: 2 µM
Notes: whole 60-bp probe, lowest competitor level
With: Cbf1 competitor, 0.05 µM
Direction: higher = stronger binding
Constant ends, left off below: … GTCTTGATTCGCTTGACGCTGCTG
Target sequence (chain): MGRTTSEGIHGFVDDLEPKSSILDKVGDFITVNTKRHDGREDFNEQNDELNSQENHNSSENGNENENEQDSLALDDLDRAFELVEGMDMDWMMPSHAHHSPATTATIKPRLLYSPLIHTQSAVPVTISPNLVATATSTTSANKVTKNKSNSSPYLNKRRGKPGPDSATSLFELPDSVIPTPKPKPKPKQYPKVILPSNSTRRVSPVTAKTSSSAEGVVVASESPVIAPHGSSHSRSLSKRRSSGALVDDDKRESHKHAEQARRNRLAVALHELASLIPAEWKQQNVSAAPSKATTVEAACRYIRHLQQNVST
| Oligonucleotide | fluorescence intensity [a.u.] |
| --- | --- |
| GTCTTGTCTCATTGATTGGTGGGTGTCCCCACTTCA | 4560 |
| GCGTATTTGCCCCAACATGTGGTAGCCAAAACTTCA | 8480 |
| AATTGGGGTGCGAGTCACGTGCAAAACGACGGTAGT | 17000 |
| ATTACCAAACGCTGTCATGTGTAGCCACTCTAGAAG | 6820 |
| CATACCCAACCTTGTCACCTCACTTAAGATATTTGT | 3620 |
| AAAGCGGTAATTTGTCACCGTACTTCACATATCTAT | 3360 |
| TTGCTCCTGGATTGGTTCGTGACTCGGCACTTTACG | 4000 |
| ATCAAGACGGGATTGCACACGCATTAACAACAACTC | 8950 |
| GGTTTATTTGGATCGCACGTGGCAATAGTGATGAGA | 17700 |
| CGGGGTTAAGTTTTTCACGTGGCTTGCTTGCAGCAG | 13400 |
| AAATTACTAAGTTGGGAAGTGGGTGACGCCGTATGA | 4320 |
| CTTCTGTAAATTTGTGGGGTGGGTGGACGCGCCCCG | 4960 |
| AAAGCGGTAATTTGTCCTGTGGGTGCAGATATCTAT | 4590 |
| CTAACGAAGGTTTGGCTCGTGGGTGACAAGCCAAGT | 9980 |
| AAATTACTAAGTTGTCCAGTGGGTGACGCCGTATGA | 3340 |
| AAATGGCCAATATTCTACGTGCTTTTTATTAGAAAC | 7050 |
| ACCTATATGAATTCTCATGTGTCTCGTCTGATGTTC | 5960 |
| CGTCCTAGTGATTGTCACGTGACTTCCATGAGGAAG | 11300 |
| CGGGGTTAAGTTTGATGGGTGGGTGGCTTGCAGCAG | 4760 |
| GTTGTTGGGATCCGTCACGTGTAGGCAAAACGCGTT | 13900 |

Set 3
Target: Fragile X messenger ribonucleoprotein 1, C-terminal low-complexity region (Fmr1, Mus musculus, UniProt P35922)
Method: RNA Bind-n-Seq
Form: RNA
Medium: in vitro
Tested at: 200 nM
Notes: whole 134-nt RNA, ends assumed
With: 150 mM LiCl
Baseline: input library
Direction: higher = stronger binding
All molecules: 7-deaza-guanosine replaces G
Constant ends, left off below: GGGAGUUCUACAGUCCGACGAUC … UGGAAUUCUCGGGUGUCAAGG
| Oligonucleotide | log2 enrichment |
| --- | --- |
| GCAGGAAGUAAAAACAAAUGGAAAUGCUUCGGAUAGUGGCAGGGGUGGGGGUUGCUAAGGAAAGGGUGGGAUGGGAGUGGGUAAUGAGUU | 2.14 |
| ACCAUGCAGGUGGGCAUCUUUGGGAAGUGGGCCAAGGGGGGGAUAGGGAGGGGGGUAACACUUUGGGAACAGGUGGUCCCAGGUCGUUUC | 1.17 |
| UGGGAGGUGGAUUUUGUUUAUUUUUUUAGCUCAUUUCCAGGGGUGGGAAUUUUUUUUGAAUAUGUGUCAUGAAUAAAGUUGUUUUUGAAA | -0.291 |
| ACCAUGCAGGUGGGCAUCUUUGGGAAGUGGGGUAAGGGGGGGAUAGGGAGGGGGGUAACACUUUGGGAACAGGUGGUCCCAGGUCGUUUC | 1.68 |
| CAAGUCCUGUGCUACACAUCGUAUGUACCGAAUCGGGGUUGGGGUUGGGUUGGGGAAAGUAUUAUGUUACGCCGUUCGGAUCUGCACUUC | 0.356 |
| UAACUUUGGAGGAGGAUCUGAUGGAUAUGGCAGUGGACGUGGAUUUGGGGAUGGCUAUAAUGGGUAUGGAGGAGGACCUGGAGGUGGCAA | 0.391 |
| AGUCCUGUGCUACACAUCGUAUGUACCGAAUCGGGAAAAAAAGGGAGGGAAAAAGGGAAAGUAUUAUGUUACGCCGUUCGGAUCUGCACU | -1.06 |
| CUUGACCCUCAACACCAACCAUGGGCAUAUCCUGGUGGAUUACUCCAAGAACCUGGUGACGGAGGACGUGAUGCGGAUGCUGGUGGACUU | -2.41 |
| ACCAUGCAGGUGGGCAUCUUUGGGAAGUGGGGCAAGGGGGGGAUAGGGAGGGGGAUAACACUUUGGGAACAGGUGGUCCCAGGUCGUUUC | 1.43 |
| AGUCCUGUGCUACACAUCGUAUGUACCGAAUCGGCCCCCGGGCCCCCGGGGCCCCCGGAAAGUAUUAUGUUACGCCGUUCGGAUCUGCAC | -3.08 |
| CAAGUCCUGUGCUACACAUCGUAUGUACCGAAUCGGGAAAGGGAGGGUUUUUGGGAAAGUAUUAUGUUACGCCGUUCGGAUCUGCACUUC | -1.01 |

Set 4
Target: RING finger protein unkempt homolog, zinc fingers 1-6, GST-SBP tag (UNK, Homo sapiens, UniProt Q9C0B0, residues 30-357)
Chain of UniProt Q9C0B0 (30-357, looked up): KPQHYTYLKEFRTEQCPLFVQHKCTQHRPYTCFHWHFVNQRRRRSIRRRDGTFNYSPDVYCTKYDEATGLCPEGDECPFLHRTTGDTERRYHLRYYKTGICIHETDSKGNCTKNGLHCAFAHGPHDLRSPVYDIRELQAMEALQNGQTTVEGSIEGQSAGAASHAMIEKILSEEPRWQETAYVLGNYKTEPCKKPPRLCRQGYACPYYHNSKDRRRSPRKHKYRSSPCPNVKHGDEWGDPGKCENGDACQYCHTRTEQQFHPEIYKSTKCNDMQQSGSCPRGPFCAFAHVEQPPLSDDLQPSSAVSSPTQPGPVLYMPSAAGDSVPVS
Method: RNA Bind-n-Seq
Form: RNA
Medium: in vitro
Tested at: not given
Notes: RNA with constant flanks, ends assumed
Baseline: input RNA pool
Direction: higher = stronger binding
Constant ends, left off below: GGGAGUUCUACAGUCCGACGAUC … CAACAGAGGAUUGAGCAUCA
| Oligonucleotide | bound/input enrichment |
| --- | --- |
| AGGAAAUGUUGUAAUCAUCCAUAUCUUAUAAAAGGUGCUGAGGAGAAAAUACUUGGAGAAUUCCGAGAUACUUACAAUCCAGCUGCUUCUGAUUUUCAUCUUCAAGCAAUGAUCCAGUCU | 0.156 ratio |
| AUCAAGCAACUGGUUUCCGGAGCUGAGACACUGAAUCUUGUUGCCGAAAUCCUUAAAUCUACCGACAGAAUUUCUGAAGUUAAAGACGAGGAGGAAGACUCUUGAGGACCCCUGGGUGUU | 0.232 ratio |
| UUACCUUUAUAAUGUAGCAGUGAAGUAAAUCAUUUUAGAACUUAAUAUCCAACUGAUCACCGUACAUAUUGUAAAUAAAAUGUAUUUUGAUGACAGCUCAGUUGAAUAUGGAUAAUAUGU | 2.2 ratio |
| CACUGCGAAAAUUCAUUCCGCUGUAAUGUUUUCACAAUAUUUAAAGCAGAAGCACGUCAGUCCGGAUUUCCUUCUGCAUAAGGUUUUUUUGUAGUGUAAUGUCUUAAUCAUAGUCUACCA | 0.31 ratio |
| UCAUUGCCCUCAACAUGAAGACUGCCAUAUUCCAAGUCACAUCAUUUUACCAAUGGAGUUACCGAAUUAACAGUAUUUUCAAUUACGUUUAUAACACUGCAGAGACCUUAAGUGCUAAAC | 0.128 ratio |
| AUAUCUACAUGCUGUCAGUGAGGCUCCAGGAGGCUUUCCUAACCCUGGGAAGUUAUUUGGGCACCGCGCUCUAUGUUUAAUAAAGGUUUUUUAAUAGAUGUUUUAUUCAGUACAUCUUCC | 1.2 ratio |
| AAGUAUUCCUCGGGAUGUUUUUAUAUAAAUUAUGUUUUGGAAUAGAACAUAAAUGACUUUGAGUCCGGAUAAGGAUGAUAGGAUGGGUGCUGGAGAUGCCCUGCCUUGCUUAUUUGUUUC | 0.415 ratio |
| GGCUUCAGCAGUGUGCUCCAGUUCCUAGGACUCUACAAGAAAUCUGGAAAACUUGUAUUCUCCGGAUUGGACAAUGCGGGCAAAACCACUCUUCUUCACAUGCUGAAAGAUGACAGACUA | 0.193 ratio |

Other studies, line by line
| Substance | target | test | system | conditions | how to read | measurement | value |
| --- | --- | --- | --- | --- | --- | --- | --- |
| PhoQ, residues 284 288 289 292 302 303 NLMGRA | PhoP, residues 12 14 15 18 19 NHFIF (Escherichia coli, UniProt P23836) | Sort-seq, item: YFP reporter | E. coli | PhoQ-PhoP variant library, with: 10 µM Mg2+ | baseline: high Mg2+ state, higher = stronger signaling | fold induction | 4.78 |

Repeated from above (set 1):
| Change | normalised enrichment score |
| --- | --- |
| A3I | 3.29 |
| L7F | -0.274 |
| L7Y | 0.0825 |
| S2D | 3.74 |
| R5N | 0.228 |
| V4R | 5.56 |
| K6T | 3.82 |
| F9D | 0.0312 |
| S2T | 5.45 |
